Experimental data pooled from the literature.
Parts stem from different laboratories: compare values within a part only. Positions count from the first letter of the parent shown.

Study 1 — technique: DHFR PCA, deep sequencing; matrix: yeast; together with: (+)-ABA 1.4 µM; relative to: wild-type fitted maximum; direction: higher = stronger binding
Target: ABI1, truncated, D143A, DHFR fusion (Arabidopsis thaliana)
Setting: methotrexate growth selection, single substitutions
Parent: PYL1, truncated, DHFR fusion (Arabidopsis thaliana); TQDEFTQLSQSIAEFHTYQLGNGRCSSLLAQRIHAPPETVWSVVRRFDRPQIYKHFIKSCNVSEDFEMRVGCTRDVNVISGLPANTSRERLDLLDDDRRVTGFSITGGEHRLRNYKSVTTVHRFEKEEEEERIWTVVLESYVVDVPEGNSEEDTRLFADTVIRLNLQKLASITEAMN; partner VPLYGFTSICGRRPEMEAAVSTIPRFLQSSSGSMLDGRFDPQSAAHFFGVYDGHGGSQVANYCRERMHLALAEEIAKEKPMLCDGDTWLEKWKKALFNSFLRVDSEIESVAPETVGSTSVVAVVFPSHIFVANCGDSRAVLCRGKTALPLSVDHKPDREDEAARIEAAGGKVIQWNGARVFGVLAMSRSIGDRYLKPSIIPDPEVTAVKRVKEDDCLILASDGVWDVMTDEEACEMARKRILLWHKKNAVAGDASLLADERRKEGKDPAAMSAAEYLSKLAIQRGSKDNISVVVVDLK
For `G71F`, “relative binding score” read -10.3%.
Under “relative binding score”, `D96M` is recorded as 1.9%.
`R24H`: “relative binding score” 19.9%.
Under “relative binding score”, `T173D` is recorded as -11.7%.
Under “relative binding score”, `N149D` is recorded as 10.2%.
Under “relative binding score”, `F47L` is recorded as -0.919%.
`F56I` — result for “relative binding score”: -8.15%.
For `R163I`, “relative binding score” read -25.9%.
`M68A` — result for “relative binding score”: 12.5%.
`R123E`: “relative binding score” 70.8%.
Under “relative binding score”, `V76S` is recorded as -7.32%.
`S171V` — result for “relative binding score”: 43.6%.
`H110P` — result for “relative binding score”: 41.6%.
`C60E` — result for “relative binding score”: 6.21%.
For `E128F`, “relative binding score” read 47.8%.
For `A170M`, “relative binding score” read 13.8%.
`T39P`: “relative binding score” 9.9%.

Study 2 — technique: universal PBM; molecule type: double-stranded DNA, one strand shown; matrix: in vitro; concentration: not given; direction: higher = stronger binding
Target: Sal-like protein 4, full length isoform B (SALL4, Homo sapiens, UniProt Q9UJQ4-2, residues 1-616)
Setting: 8-mer, flanks averaged, mean of replicates
For `CGACTTAC`, the E-score was -0.0929.
The E-score of `CCTGTCTC` is reported as -0.159.
`CGATCAAC` gave an E-score of -0.0857.
`GGTAGACC` gave an E-score of -0.164.
`CGGAGGCA` gave an E-score of -0.209.
`AACTTCCA` gave an E-score of -0.0977.
`ATAGTCCG` has an E-score of 0.0909.
For `ATACTTTC`, the E-score was 0.213.
The E-score of `AACCATAT` is reported as 0.307.
`CCTCCGTC` has an E-score of -0.238.
`GGCTCTCA` gave an E-score of -0.132.
`ATCATGAA` has an E-score of 0.13.
`TCGAATAA` gave an E-score of 0.222.
`AGGACTAA` has an E-score of 0.118.
The E-score of `ATCAGTTA` is reported as 0.246.
`GCGTCATA` has an E-score of 0.26.
With `ATGAGGTA` the E-score was 0.178.
With `GTCGTAGA` the E-score was 0.0636.
With `ATCAGTCA` the E-score was 0.0146.

Study 3 — technique: aptamer microarray, sandwich; molecule type: DNA with 2'F-ANA; matrix: in vitro; concentration: 200 nM; together with: Cy3 exosite-II aptamer, 400 nM; direction: higher = stronger binding; strand: GGTTGGTGTGGTTGG
Target: Prothrombin, mature alpha-thrombin (F2, Homo sapiens, UniProt P00734)
Setting: whole 15-mer aptamer, many near background
`2'F-ANA at 2 3 8 9 10 11 12 13 15`: “mean fluorescence intensity” 389 a.u.
Under “mean fluorescence intensity”, `2'F-ANA at 1 3 5 8 10 11 13 14 15` is recorded as 45.3 a.u.
For `2'F-ANA at 1 2 4 6 7 11 12 14 15`, “mean fluorescence intensity” read 80 a.u.
`2'F-ANA at 2 3 10` — result for “mean fluorescence intensity”: 466 a.u.
`2'F-ANA at 2 4 6 9 10 12 13`: “mean fluorescence intensity” 135 a.u.
For `2'F-ANA at 4 5 6 11 15`, “mean fluorescence intensity” read 164 a.u.
For `2'F-ANA at 1 2 9 13 15`, “mean fluorescence intensity” read 152 a.u.
`2'F-ANA at 2 3 5 7 9 11 13 15`: “mean fluorescence intensity” 69.6 a.u.
Under “mean fluorescence intensity”, `2'F-ANA at 1 7 8 10 11 14` is recorded as 48.2 a.u.
Under “mean fluorescence intensity”, `2'F-ANA at 2 5 6 7 8 10 14` is recorded as 52.7 a.u.
For `2'F-ANA at 1 4 5 7 9 10 13 14`, “mean fluorescence intensity” read 49.1 a.u.
Under “mean fluorescence intensity”, `2'F-ANA at 1 3 4 5 6 8 12` is recorded as 142 a.u.
For `2'F-ANA at 3 5 6 9 10 12 13`, “mean fluorescence intensity” read 54.3 a.u.
Under “mean fluorescence intensity”, `2'F-ANA at 1 2 6 7 8 9 14` is recorded as 64.6 a.u.
For `2'F-ANA at 3 4 7 13 15`, “mean fluorescence intensity” read 646 a.u.
Under “mean fluorescence intensity”, `2'F-ANA at 1 2 11 13 14 15` is recorded as 48.7 a.u.
`2'F-ANA at 1 6 7 8 11 14 15`: “mean fluorescence intensity” 58.8 a.u.
`2'F-ANA at 1 2 4 5 8 9 12 15` — result for “mean fluorescence intensity”: 105 a.u.
For `2'F-ANA at 5 7 8 10 11 13 14`, “mean fluorescence intensity” read 46.5 a.u.
Under “mean fluorescence intensity”, `2'F-ANA at 1 3 4 5 6 7 11 13 14 15` is recorded as 61.1 a.u.
`2'F-ANA at 1 2 3 4 5 7 8 14 15`: “mean fluorescence intensity” 48.4 a.u.
Under “mean fluorescence intensity”, `2'F-ANA at 3 6 7 9 12 15` is recorded as 1150 a.u.
`2'F-ANA at 1 2 3 5 6 8 9 10 11 13 15`: “mean fluorescence intensity” 46.9 a.u.
`2'F-ANA at 3 4 6 8 13` — result for “mean fluorescence intensity”: 468 a.u.

Study 4 — technique: protein binding microarray; molecule type: double-stranded DNA, one strand shown; matrix: in vitro; concentration: not given; relative to: not given; direction: higher = stronger binding
Target: Histone acetyltransferase KAT6A, both winged helices, GST fusion (KAT6A, Homo sapiens, UniProt Q92794, residues 1-181)
Setting: 8-mer, flanks averaged, mean of 2 arrays, mostly near background
Target sequence (chain): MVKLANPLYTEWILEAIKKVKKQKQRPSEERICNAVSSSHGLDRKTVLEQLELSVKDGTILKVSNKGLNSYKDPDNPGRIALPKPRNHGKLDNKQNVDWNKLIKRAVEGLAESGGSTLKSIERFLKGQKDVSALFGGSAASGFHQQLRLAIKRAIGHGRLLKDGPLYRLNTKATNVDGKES
The E-score of `CCTCCAAG` is reported as -0.185.
With `GATCCTTA` the E-score was -0.174.
`CCAGTATA` has an E-score of -0.207.
`AGTAACGA` gave an E-score of -0.0878.
`CGACCCTC` has an E-score of -0.156.
For `TACCAACA`, the E-score was -0.0603.
For `GTTATTAA`, the E-score was 0.125.
`CTTCGCAC` gave an E-score of 0.0316.
`ATTAATCG` has an E-score of 0.0705.
With `ACATCCCG` the E-score was 0.212.
`GGTACTAC` gave an E-score of -0.0126.
The E-score of `CTGGTTGC` is reported as 0.00074.
With `GATCCCCA` the E-score was -0.163.
`TAATCGAA` gave an E-score of 0.0262.
The E-score of `CAAATGCG` is reported as 0.0776.
With `GACTCATA` the E-score was -0.138.
The E-score of `ATAGAGCG` is reported as 0.157.
The E-score of `CAGCCGCG` is reported as 0.274.

Study 5 — technique: RNA Bind-n-Seq; molecule type: RNA; matrix: in vitro; concentration: 365 nM; relative to: no-protein control; direction: higher = stronger binding
Target: RNA binding protein fox-1 homolog 2, RRM domain, GST-SBP tag (RBFOX2, Homo sapiens, UniProt O43251-10, residues 100-194)
Setting: natural RNA segment, single round, ends assumed
Target sequence (chain): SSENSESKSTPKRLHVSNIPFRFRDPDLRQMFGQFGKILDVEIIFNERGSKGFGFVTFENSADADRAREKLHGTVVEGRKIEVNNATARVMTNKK
For `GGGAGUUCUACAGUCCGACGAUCUGGUUUUGUUUCUUUCAAAAUAAUUUUUUUUCAAAAGAAUAACAAGGGUUAGGCAAAUGGGGGACCUUCCUGUGUGCUCUUGGGGGUCUGCUCAGCAUCUGGAAAUUUGGUGGAAUUCUCGGGUGCCAA`, “RBNS enrichment (R)” read 1.42.
`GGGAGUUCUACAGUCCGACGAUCUGUGUAACCAUUUGAUAUCUGAGCAAUAGUGUCUCAGUUUAAUAAAAGCUUCCUAUAGUACAUUGGUAUGGAUUAAAUACAUAAAAUAUUCUAUUAGACUUCAUGCUGUAUGGAAUUCUCGGGUGCCAA` — result for “RBNS enrichment (R)”: 0.557.
`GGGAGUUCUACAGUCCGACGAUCGCAGUGGGGUAGAUCUCAUGAGGUUACCUACAGCUACUUCAUGUUCUUACACUGUAAGCCUUGUUGCUUUGCCCCAACAAUUGUAAUUUGAUUAUAGCUAUGAGCCUUAUUGGAAUUCUCGGGUGCCAA` — result for “RBNS enrichment (R)”: 0.365.
`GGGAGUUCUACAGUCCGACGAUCCAUUUGGUUCAGAAUCAGUUCCCUUUCUCUGGGACCAAAUUUCCCUUCUCUAAACAUCCUACAGAGAAGGUUCCAAAGCUGAGCACCCAUCACCCUAGGUGUGCACCAGAUGGAAUUCUCGGGUGCCAA`: “RBNS enrichment (R)” 0.4.
For `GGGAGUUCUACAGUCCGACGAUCUAGCCCCACCCAGGGGGAGGGGCUUAGCUGCUGAAAGUCCACCUUGCUAGAGCUAGGGUGGCUCUUGCAGCUUAGCACCCCCCAAGAUCCUUGUCCACCCCUCCCCUGGCUGGAAUUCUCGGGUGCCAA`, “RBNS enrichment (R)” read 0.38.
`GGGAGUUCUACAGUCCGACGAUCUUUACAUGAAUCUUUAAACAAUUCUGUGAGCAAAGUUUGUAGCUGCUGGAUUAUUGUCUGUCUUUAUAGCAAGUUCCAGUAAACCACAAGUAUGGCAAAGCUUAUCCAAUUGGAAUUCUCGGGUGCCAA`: “RBNS enrichment (R)” 0.277.
`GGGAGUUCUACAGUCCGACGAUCCAGGGUUGUCUAGAGGAGUGGGGAGAUGACUUUGGGGGUUCUCCUGAUUCAGUGCCAAUAGCCACAGUGUGGCUCAAGAUACAGGUAGAGGGGCUACACUAGCCCACCCCUGGAAUUCUCGGGUGCCAA`: “RBNS enrichment (R)” 0.659.
`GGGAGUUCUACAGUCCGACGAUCCACUUAAGGAAGGAUGGCUCUCUCUCAUCUGUCUCUUGUUCCUUAUUGUUGCAGAGCUAGCUCCACAGAGUCAGAAAGUUCUGACCCACAUUAGACCCGUGUGCGCUGCUUGGAAUUCUCGGGUGCCAA` — result for “RBNS enrichment (R)”: 0.459.
For `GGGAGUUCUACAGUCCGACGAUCCAAAGGUUUAGAACACAUUAUUUUCAAAGACUAAAUCUAAAACCCAGAGUAAACAUCAAUGCUCAGAGUUAGCAUAAUUUGGAGCUAUUCAGGAAUUGCAGAGAAAUGCAUGGAAUUCUCGGGUGCCAA`, “RBNS enrichment (R)” read 2.52.
For `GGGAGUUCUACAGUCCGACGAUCUGCACAGCUUGGUUAGACCUAGAUUUAACCCUAAGGUAAGAUGCUGGGGUAUAGAACGCUAAGAAUUUUCCCCCAAGGACUCUUGCUUCCUUAAGCCCUUCUGGCUUCGUUGGAAUUCUCGGGUGCCAA`, “RBNS enrichment (R)” read 0.243.
Under “RBNS enrichment (R)”, `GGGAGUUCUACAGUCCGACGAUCCUUCCUUCCCCCUUUAACUGAGUCUGCUGUUCAGUUAAGCCUUUAUUUCCUCUCCAGUACCCAUUUCCAAAGAGAAAGAGUGAAGUACUUUGAAGUCUGUACUUGAAAUCUGGAAUUCUCGGGUGCCAA` is recorded as 0.927.
`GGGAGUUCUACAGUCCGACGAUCAUGGACCCAUCGAGAAUGUUGAAAAGCUUGGAAGUAUCACUUUUGAAAAAAAAAAAAAUUAUUUUGCAUUCAGCAUGGACUCGACCAGGCAUCUAUGGAGAUUAUUUUUUUGGAAUUCUCGGGUGCCAA` — result for “RBNS enrichment (R)”: 0.937.

Excerpt of the above (study 4):
The E-score of `CCTCCAAG` is reported as -0.185.
With `GATCCCCA` the E-score was -0.163.
`GGTACTAC` gave an E-score of -0.0126.
For `GTTATTAA`, the E-score was 0.125.
The E-score of `CAGCCGCG` is reported as 0.274.
`CTTCGCAC` gave an E-score of 0.0316.
The E-score of `CTGGTTGC` is reported as 0.00074.
With `ACATCCCG` the E-score was 0.212.
With `GACTCATA` the E-score was -0.138.
`TAATCGAA` gave an E-score of 0.0262.
`CGACCCTC` has an E-score of -0.156.
